Results pooled from the literature.
Each line is one published result; not all experiments were run side by side. Numbers after ± are the reported error.
GLP1R: Glucagon-like peptide 1 receptor (GLP1R, Homo sapiens, UniProt P43220)
Sequence of UniProt Q9Y5Y4 (whole entry, looked up): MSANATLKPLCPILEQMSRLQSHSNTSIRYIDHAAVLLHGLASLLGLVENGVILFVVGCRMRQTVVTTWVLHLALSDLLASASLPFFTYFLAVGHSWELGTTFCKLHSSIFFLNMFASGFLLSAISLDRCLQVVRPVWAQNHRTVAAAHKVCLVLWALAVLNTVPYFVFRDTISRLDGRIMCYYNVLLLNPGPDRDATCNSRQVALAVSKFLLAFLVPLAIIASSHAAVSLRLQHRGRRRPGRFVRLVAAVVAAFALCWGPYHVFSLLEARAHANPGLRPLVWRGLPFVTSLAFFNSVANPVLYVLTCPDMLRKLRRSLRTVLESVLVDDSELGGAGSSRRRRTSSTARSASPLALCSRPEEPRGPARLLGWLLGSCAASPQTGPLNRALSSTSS
Sequence of UniProt Q704Y3 (whole entry, unmodified, looked up): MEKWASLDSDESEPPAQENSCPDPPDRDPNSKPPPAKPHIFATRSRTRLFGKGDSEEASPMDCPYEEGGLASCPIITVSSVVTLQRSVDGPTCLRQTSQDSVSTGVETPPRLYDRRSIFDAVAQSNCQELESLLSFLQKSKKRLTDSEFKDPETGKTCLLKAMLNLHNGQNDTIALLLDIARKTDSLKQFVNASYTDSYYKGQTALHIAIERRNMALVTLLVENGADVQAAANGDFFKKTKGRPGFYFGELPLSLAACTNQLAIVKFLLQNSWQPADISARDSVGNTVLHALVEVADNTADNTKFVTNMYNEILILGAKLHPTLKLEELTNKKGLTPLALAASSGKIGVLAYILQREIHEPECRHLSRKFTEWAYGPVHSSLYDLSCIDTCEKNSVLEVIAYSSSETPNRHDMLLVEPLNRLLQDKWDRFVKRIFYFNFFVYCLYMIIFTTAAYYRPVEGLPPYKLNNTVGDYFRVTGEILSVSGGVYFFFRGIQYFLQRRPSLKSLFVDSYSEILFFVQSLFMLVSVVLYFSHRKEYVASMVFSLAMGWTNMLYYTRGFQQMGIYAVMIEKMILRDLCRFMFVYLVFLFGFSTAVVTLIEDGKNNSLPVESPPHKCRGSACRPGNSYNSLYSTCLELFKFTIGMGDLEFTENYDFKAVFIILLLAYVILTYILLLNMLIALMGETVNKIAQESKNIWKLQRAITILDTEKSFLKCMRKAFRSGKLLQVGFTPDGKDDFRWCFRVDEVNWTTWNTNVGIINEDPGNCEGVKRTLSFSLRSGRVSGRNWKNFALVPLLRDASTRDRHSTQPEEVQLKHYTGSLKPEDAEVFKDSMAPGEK
Sequence of UniProt P08172 (whole entry, looked up): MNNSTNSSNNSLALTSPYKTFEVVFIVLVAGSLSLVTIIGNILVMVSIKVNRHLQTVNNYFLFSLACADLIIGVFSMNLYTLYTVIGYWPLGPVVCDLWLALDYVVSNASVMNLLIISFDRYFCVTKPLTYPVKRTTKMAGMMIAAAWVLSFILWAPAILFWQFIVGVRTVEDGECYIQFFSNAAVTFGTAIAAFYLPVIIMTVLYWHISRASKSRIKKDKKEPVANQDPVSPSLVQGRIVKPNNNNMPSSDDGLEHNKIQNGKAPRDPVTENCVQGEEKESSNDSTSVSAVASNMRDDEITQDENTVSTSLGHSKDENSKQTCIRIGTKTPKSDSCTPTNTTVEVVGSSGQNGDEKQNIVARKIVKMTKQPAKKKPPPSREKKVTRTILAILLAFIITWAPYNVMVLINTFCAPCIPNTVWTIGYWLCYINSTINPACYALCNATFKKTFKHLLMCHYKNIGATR
Sequence of UniProt Q13310 (whole entry, looked up): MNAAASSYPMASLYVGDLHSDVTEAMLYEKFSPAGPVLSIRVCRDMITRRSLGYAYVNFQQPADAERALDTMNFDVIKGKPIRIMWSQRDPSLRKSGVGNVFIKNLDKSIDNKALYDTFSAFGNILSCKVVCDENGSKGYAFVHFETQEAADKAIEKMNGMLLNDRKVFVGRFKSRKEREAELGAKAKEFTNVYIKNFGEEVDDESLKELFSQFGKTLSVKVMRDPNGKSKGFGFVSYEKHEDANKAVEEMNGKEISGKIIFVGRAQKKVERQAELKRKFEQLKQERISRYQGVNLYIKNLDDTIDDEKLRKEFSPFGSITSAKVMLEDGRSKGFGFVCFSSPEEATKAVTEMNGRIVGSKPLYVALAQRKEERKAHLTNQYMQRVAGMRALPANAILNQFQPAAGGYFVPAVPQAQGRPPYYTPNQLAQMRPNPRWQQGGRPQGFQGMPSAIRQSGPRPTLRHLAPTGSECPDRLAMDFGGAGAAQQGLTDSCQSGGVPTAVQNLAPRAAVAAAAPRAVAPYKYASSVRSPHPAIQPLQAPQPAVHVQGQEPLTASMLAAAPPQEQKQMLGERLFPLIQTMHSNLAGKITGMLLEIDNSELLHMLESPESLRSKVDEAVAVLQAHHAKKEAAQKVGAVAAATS

Compound = C[C@H]1CN(c2n[nH]c3nc(N[C@H]4CC[C@H](NS(=O)(=O)CCC(F)(F)F)CC4)ncc23)CCO1; target or system = Polyadenylate-binding protein 4 (Homo sapiens, UniProt Q13310); test = Kinobeads competition, item: PABPC4; setting = 0.032 µM, unit not given; scale = reference: vehicle; measurement = remaining binding; value = 1.06
Compound = CC[C@H](C)[C@H](NC(=O)[C@H](Cc1ccccc1)NC(=O)[C@H](CCC(=O)O)NC(=O)[C@H](CCCNC(=N)N)NC(=O)[C@H](C)NC(=O)[C@H](C)NC(=O)[C@H](CCC(N)=O)NC(=O)[C@H](CCCCNc1c(NCCCCCN(O)C(=O)CCC(=O)NCCCCCN(O)C(=O)CCC(=O)NCCCCCN(O)C(C)=O)c(=O)c1=O)NC(=O)[C@H](CCC(=O)O)NC(=O)[C@H](CC(C)C)NC(=O)[C@H](Cc1ccc(O)cc1)NC(=O)[C@H](CO)NC(=O)[C@H](CO)NC(=O)[C@@H](NC(=O)[C@H](CC(=O)O)NC(=O)[C@H](CO)NC(=O)[C@@H](NC(=O)[C@H](Cc1ccccc1)NC(=O)[C@@H](NC(=O)CNC(=O)[C@H](CCC(=O)O)NC(=O)[C@H](C)NC(=O)CCc1cnc[nH]1)[C@@H](C)O)[C@@H](C)O)C(C)C)C(=O)N[C@@H](C)C(=O)N[C@@H](Cc1c[nH]c2ccccc12)C(=O)N[C@@H](CC(C)C)C(=O)N[C@H](C(=O)N[C@@H](CCCCNc1c(NCCCCCN(O)C(=O)CCC(=O)NCCCCCN(O)C(=O)CCC(=O)NCCCCCN(O)C(C)=O)c(=O)c1=O)C(=O)NCC(=O)N[C@@H](CCCNC(=N)N)C(=O)N[C@@H](CCCCNC(=O)COCCOCCNC(=O)COCCOCCNC(=O)CC[C@H](NC(=O)CCCCCCCCCCCCCCCCC(=O)O)C(=O)O)C(=O)O)C(C)C; target or system = GLP1R; test = cAMP reporter gene, agonist, CRE luciferase; test system = BHK; setting = with Zr, 1% HSA; measurement = EC50; value = 0.22 nM
Compound = Clc1cc2c(cc1Cl)Oc1cc(Cl)c(Cl)cc1O2; target or system = Uncharacterized protein (Takifugu rubripes, UniProt Q4JHL4); test = reporter gene, agonist, dual-luciferase; test system = COS-7; setting = 24 h; measurement = EC50; value = 0.98 ± 0.63 nM
Compound = CC[C@H](C)[C@H](NC(=O)[C@H](Cc1ccccc1)NC(=O)[C@H](CCC(=O)O)NC(=O)[C@H](CCCNC(=N)N)NC(=O)[C@H](C)NC(=O)[C@H](C)NC(=O)[C@H](CCC(N)=O)NC(=O)[C@H](CCC(=O)O)NC(=O)[C@H](CCC(=O)O)NC(=O)[C@H](CC(C)C)NC(=O)[C@H](Cc1ccc(O)cc1)NC(=O)[C@H](CO)NC(=O)[C@H](CO)NC(=O)[C@@H](NC(=O)[C@H](CC(=O)O)NC(=O)[C@H](CO)NC(=O)[C@@H](NC(=O)[C@H](Cc1ccccc1)NC(=O)[C@@H](NC(=O)CNC(=O)[C@H](CCC(=O)O)NC(=O)[C@H](C)NC(=O)CCc1cnc[nH]1)[C@@H](C)O)[C@@H](C)O)C(C)C)C(=O)N[C@@H](C)C(=O)N[C@@H](Cc1c[nH]c2ccccc12)C(=O)N[C@@H](CC(C)C)C(=O)N[C@H](C(=O)N[C@@H](CCCNC(=N)N)C(=O)NCC(=O)N[C@@H](CCCNC(=N)N)C(=O)N[C@@H](CCCCNC(=O)COCCOCCNC(=O)COCCOCCNC(=O)CC[C@H](NC(=O)CCCCCCCCCCCCCCCCC(=O)O)C(=O)O)C(=O)NCC(=O)NCC(=O)N[C@@H](CO)C(=O)N[C@@H](CCCCNc1c(NCCCCCN(O)C(=O)CCC(=O)NCCCCCN(O)C(=O)CCC(=O)NCCCCCN(O)C(C)=O)c(=O)c1=O)C(=O)N[C@@H](CCCCNc1c(NCCCCCN(O)C(=O)CCC(=O)NCCCCCN(O)C(=O)CCC(=O)NCCCCCN(O)C(C)=O)c(=O)c1=O)C(=O)O)C(C)C; target or system = GLP1R; test = cAMP reporter gene, agonist, CRE luciferase; test system = BHK; setting = without Zr, 0% HSA; measurement = EC50; value = 0.012 nM
Compound = CCCCC/C=C\C/C=C\C/C=C\C/C=C\CCCC(=O)NCCO; target or system = Transient receptor potential cation channel subfamily V member 1 (Trpv1, Mus musculus, UniProt Q704Y3, Y512F); test = ion current, agonist, whole-cell patch clamp; setting = 24 °C, Y512F, +80 mV; measurement = EC50; value = 4010 ± 510 nM
Compound = CO[C@H]1C[C@@H]2CC[C@@H](C)[C@@](O)(O2)C(=O)C(=O)N2CCCC[C@H]2C(=O)O[C@H]([C@H](C)C[C@@H]2CC[C@@H](OC(=O)NCCOCCOCCOCCOCCOCCOCCOCCOCCC(=O)N3CCc4cc(Cn5nc(-c6ccc7oc(N)nc7c6)c6c(N)ncnc65)ccc4C3)[C@H](OC)C2)C[C@@H](O)[C@H](C)/C=C(\C)[C@@H](O)[C@@H](OC)C(=O)[C@H](C)C[C@H](C)/C=C/C=C/C=C/1C; test = dose-escalation trial; test system = patients with advanced solid tumours; setting = intravenous, 1.6 mg/3 mg weekly, any grade; measurement = gastric haemorrhage leading to dose reduction; value = 0%
Compound = CC[C@H](C)[C@H](NC(=O)[C@H](Cc1ccccc1)NC(=O)[C@H](CC(=O)O)NC(=O)[C@H](CCCNC(=N)N)NC(=O)[C@@H](NC(=O)[C@H](C)NC(=O)[C@H](CC(C)C)NC(=O)[C@H](CC(N)=O)NC(=O)[C@H](CC(=O)O)NC(=O)[C@H](CC(C)C)NC(=O)[C@@H](NC(=O)[C@@H](NC(=O)[C@H](CO)NC(=O)[C@H](CCSC)NC(=O)[C@H](CCC(=O)O)NC(=O)[C@H](CC(=O)O)NC(=O)[C@H](CO)NC(=O)[C@H](Cc1ccccc1)NC(=O)[C@H](CO)NC(=O)CNC(=O)[C@H](CC(=O)O)NC(=O)[C@H](C)NC(=O)[C@@H](N)Cc1c[nH]cn1)[C@@H](C)O)[C@@H](C)CC)[C@@H](C)O)C(=O)N[C@@H](CC(N)=O)C(=O)N[C@@H](Cc1c[nH]c2ccccc12)C(=O)N[C@@H](CC(C)C)C(=O)N[C@H](C(=O)N[C@@H](CCC(N)=O)C(=O)N[C@H](C(=O)N[C@@H](CCCCN)C(=O)N[C@H](C(=O)N[C@H](C(=O)N[C@@H](CC(=O)O)C(=O)O)[C@@H](C)O)[C@@H](C)CC)[C@@H](C)O)[C@@H](C)CC; target or system = GLP1R; test = reporter gene, agonist, CRE-luciferase; test system = HEK-293T; measurement = EC50; value = 44 nM
Compound = CC[C@H](C)[C@@H]1NC(=O)[C@@H]2CCCN2C(=O)[C@H](CC(C)C)NC(=O)[C@H](CC(C)C)NC(=O)CNC(=O)[C@@H](NC(=O)[C@@H](NC(=O)[C@H](CC(=O)O)NC(=O)CNC(=O)[C@@H](NC(=O)[C@H](C)NC(=O)CNC(=O)[C@H](CCCCN)NC(=O)[C@H](CC(C)C)NC(=O)[C@H](CC(C)C)NC(=O)[C@H](CCCCN)NC(=O)CNC(=O)[C@@H](NC(=O)[C@@H](N)CC(C)C)C(C)C)C(C)C)C(C)C)CSSC[C@@H](C(=O)O)NC1=O; test = RNA-seq, item: Lgr6; test system = mouse, traumatic brain injury model, frontal cortex and hippocampus; setting = dose not given; scale = reference: TBI alone; measurement = log2 fold change; value = -1.39
Compound = CC[C@H](C)[C@H](NC(=O)[C@H](Cc1ccccc1)NC(=O)[C@H](CCC(=O)O)NC(=O)[C@H](CCCNC(=N)N)NC(=O)[C@H](C)NC(=O)[C@H](C)NC(=O)[C@H](CCC(N)=O)NC(=O)[C@H](CCC(=O)O)NC(=O)[C@H](CCC(=O)O)NC(=O)[C@H](CC(C)C)NC(=O)[C@H](Cc1ccc(O)cc1)NC(=O)[C@H](CO)NC(=O)[C@H](CO)NC(=O)[C@@H](NC(=O)[C@H](CC(=O)O)NC(=O)[C@H](CO)NC(=O)[C@@H](NC(=O)[C@H](Cc1ccccc1)NC(=O)[C@@H](NC(=O)CNC(=O)[C@H](CCC(=O)O)NC(=O)[C@H](C)NC(=O)CCc1cnc[nH]1)[C@@H](C)O)[C@@H](C)O)C(C)C)C(=O)N[C@@H](C)C(=O)N[C@@H](Cc1c[nH]c2ccccc12)C(=O)N[C@@H](CC(C)C)C(=O)N[C@H](C(=O)N[C@@H](CCCNC(=N)N)C(=O)NCC(=O)N[C@@H](CCCNC(=N)N)C(=O)N[C@@H](CCCCNC(=O)COCCOCCNC(=O)COCCOCCNC(=O)CC[C@H](NC(=O)CCCCCCCCCCCCCCCCC(=O)O)C(=O)O)C(=O)NCC(=O)NCC(=O)N[C@@H](CO)C(=O)N[C@@H](CCCCNc1c(NCCCCCN(O)C(=O)CCC(=O)NCCCCCN(O)C(=O)CCC(=O)NCCCCCN(O)C(C)=O)c(=O)c1=O)C(=O)NCC(=O)NCC(=O)N[C@@H](CO)C(=O)N[C@@H](CCCCNc1c(NCCCCCN(O)C(=O)CCC(=O)NCCCCCN(O)C(=O)CCC(=O)NCCCCCN(O)C(C)=O)c(=O)c1=O)C(=O)O)C(C)C; target or system = GLP1R; test = cAMP reporter gene, agonist, CRE luciferase; test system = BHK; setting = without Zr, 0% HSA; measurement = EC50; value = 0.011 nM
Compound = COc1cc(Nc2ncc(F)c(Nc3ccc4c(n3)NC(=O)C(C)(C)O4)n2)cc(OC)c1OC; target or system = Prostaglandin D2 receptor 2 (PTGDR2, Homo sapiens, UniProt Q9Y5Y4); measurement = IC50; value = > 10000 nM
Compound = COc1cc2c(Oc3ccc4[nH]c(C)cc4c3F)ccnc2cc1OCC1(N)CC1; test system = paediatric recurrent refractory sarcoma; setting = 12 mg; measurement = grade 3 weight loss; value = 0%
Compound = COc1cccc(-c2ccc([C@@H]3[C@@H](CO)N4CCCCN(C(=O)Cc5ccncc5)C[C@@H]34)cc2)c1; target or system = Insulin-degrading enzyme (IDE, Homo sapiens, UniProt P14735); test = enzyme activity, inhibitor, fluorogenic kinetic; setting = with: Mca-RPPGFSAFK(Dnp)-OH substrate; measurement = EC50; value = 14700 nM
Compound = Cc1cc(N2CCNCC2)nc2ccccc12; target or system = Muscarinic acetylcholine receptor M2 (CHRM2, Homo sapiens, UniProt P08172); test = ERK1/2 phosphorylation, agonist; test system = CHO cells; measurement = EC50; value = > 20000 nM
Compound = O=C(C1CCCCC1)N1CC(=O)N2CCc3ccccc3[C@@H]2C1; target or system = TRPM channel TRPM_PZQ (Schistosoma japonicum, UniProt A0A4Z2DYB8); measurement = EC50; value = 361 ± 69 nM
Compound = COc1c(O)cc2oc3cc(O)c(CC=C(C)C)c(O)c3c(=O)c2c1CC=C(C)C; target or system = Cyclin-dependent kinase 2, with cyclin E1 (CDK2, Homo sapiens, UniProt P24941); test = kinase activity, inhibitor; measurement = EC50; value = 19900 nM

Some of these lines once more:
Compound = CCCCC/C=C\C/C=C\C/C=C\C/C=C\CCCC(=O)NCCO; target or system = Transient receptor potential cation channel subfamily V member 1 (Trpv1, Mus musculus, UniProt Q704Y3, Y512F); test = ion current, agonist, whole-cell patch clamp; setting = 24 °C, Y512F, +80 mV; measurement = EC50; value = 4010 ± 510 nM
Compound = CO[C@H]1C[C@@H]2CC[C@@H](C)[C@@](O)(O2)C(=O)C(=O)N2CCCC[C@H]2C(=O)O[C@H]([C@H](C)C[C@@H]2CC[C@@H](OC(=O)NCCOCCOCCOCCOCCOCCOCCOCCOCCC(=O)N3CCc4cc(Cn5nc(-c6ccc7oc(N)nc7c6)c6c(N)ncnc65)ccc4C3)[C@H](OC)C2)C[C@@H](O)[C@H](C)/C=C(\C)[C@@H](O)[C@@H](OC)C(=O)[C@H](C)C[C@H](C)/C=C/C=C/C=C/1C; test = dose-escalation trial; test system = patients with advanced solid tumours; setting = intravenous, 1.6 mg/3 mg weekly, any grade; measurement = gastric haemorrhage leading to dose reduction; value = 0%
